# Assay results from different studies.
# Each numbered part is a random draw from the data of one study; scales do not carry over between parts.

# Set 1
# Target: Interferon regulatory factor 7, full length, phosphomimetic (IRF7, Homo sapiens, UniProt Q92985, residues 1-503, S471D/S472D/S475D/S476D/S477D/S483D/S484D/S487D)
# Chain of UniProt Q92985 (whole entry, unmodified, looked up): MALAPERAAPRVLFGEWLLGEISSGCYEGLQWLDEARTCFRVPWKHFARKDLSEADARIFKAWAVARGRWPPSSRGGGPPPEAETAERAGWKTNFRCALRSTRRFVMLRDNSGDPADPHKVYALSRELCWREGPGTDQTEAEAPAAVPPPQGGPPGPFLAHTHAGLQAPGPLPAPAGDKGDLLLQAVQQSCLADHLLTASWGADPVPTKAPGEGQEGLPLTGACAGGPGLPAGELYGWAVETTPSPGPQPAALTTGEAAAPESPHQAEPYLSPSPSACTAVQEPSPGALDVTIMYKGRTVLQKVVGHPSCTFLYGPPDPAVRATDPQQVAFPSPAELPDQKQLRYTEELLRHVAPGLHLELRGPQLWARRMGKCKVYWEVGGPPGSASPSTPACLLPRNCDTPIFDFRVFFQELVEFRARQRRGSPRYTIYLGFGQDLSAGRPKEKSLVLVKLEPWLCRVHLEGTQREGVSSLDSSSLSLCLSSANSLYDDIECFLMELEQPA
# Method: protein-binding microarray
# Form: double-stranded DNA, one strand shown
# Matrix: in vitro
# Tested at: 2200 nM top
# Setting: 60-bp whole probe
# Together with: salmon DNA 0.4 mg/ml
# Baseline: random background probes
# Direction: higher = stronger binding
# Constant ends, left off below: GCCTAGCAC … GTCTTGATTCGCTTGACGCTGCTG
Strand,fitted relative affinity [z-score]
GACGGTCTCGGTATCGGGACGTGCTAG,0.025
GGTGGTGATGGTGAGTAAGAGTGCTAG,-0.71
GACGAAATGAGTCTCGAGACGTGCTAG,0.0786
GATGGTTTCGGTATCGGGACGTGCTAG,8.07
CCCTATTTAAGGCTAGGCACGTGCTAG,0.507
TCAATCATTGTTTTCAGACTGTGCTAG,0.971
TCAGCCCTCGGTTTACAACTGTGCTAG,2.5
GACGGACTGGACTATCGGGACGTGCTA,-0.723
TCAGCTCTTATATACCTGACTGTGCTA,0.753
TTAGGTATCGGGCATCGGTTAGTGCTA,-0.15
GAAGGTTTCGGGTATCGGGACGTGCTA,5.56
TGAGATCTCAGTATCGATTAGTGCTAG,0.0716
TTAGGTCTCCTCCTGCTTTAGTGCTAG,0.696
TTAGGACGGCTTTTCCTTTAGTGCTAG,0.51
TTAGGTTCCCTTATCCTTTAGTGCTAG,1.46
TTAGGTCTCGGCCTGGGTTAGTGCTAG,-0.464
GACGATATCCGGTATCGAGACGTGCTA,0.957
ATCTTCATGAAATTTTAATAAGTGCTA,-0.458

# Set 2
# Target: Sal-like protein 4, full length isoform A (SALL4, Homo sapiens, UniProt Q9UJQ4, residues 1-1053)
# Chain of UniProt Q9UJQ4 (whole entry, looked up): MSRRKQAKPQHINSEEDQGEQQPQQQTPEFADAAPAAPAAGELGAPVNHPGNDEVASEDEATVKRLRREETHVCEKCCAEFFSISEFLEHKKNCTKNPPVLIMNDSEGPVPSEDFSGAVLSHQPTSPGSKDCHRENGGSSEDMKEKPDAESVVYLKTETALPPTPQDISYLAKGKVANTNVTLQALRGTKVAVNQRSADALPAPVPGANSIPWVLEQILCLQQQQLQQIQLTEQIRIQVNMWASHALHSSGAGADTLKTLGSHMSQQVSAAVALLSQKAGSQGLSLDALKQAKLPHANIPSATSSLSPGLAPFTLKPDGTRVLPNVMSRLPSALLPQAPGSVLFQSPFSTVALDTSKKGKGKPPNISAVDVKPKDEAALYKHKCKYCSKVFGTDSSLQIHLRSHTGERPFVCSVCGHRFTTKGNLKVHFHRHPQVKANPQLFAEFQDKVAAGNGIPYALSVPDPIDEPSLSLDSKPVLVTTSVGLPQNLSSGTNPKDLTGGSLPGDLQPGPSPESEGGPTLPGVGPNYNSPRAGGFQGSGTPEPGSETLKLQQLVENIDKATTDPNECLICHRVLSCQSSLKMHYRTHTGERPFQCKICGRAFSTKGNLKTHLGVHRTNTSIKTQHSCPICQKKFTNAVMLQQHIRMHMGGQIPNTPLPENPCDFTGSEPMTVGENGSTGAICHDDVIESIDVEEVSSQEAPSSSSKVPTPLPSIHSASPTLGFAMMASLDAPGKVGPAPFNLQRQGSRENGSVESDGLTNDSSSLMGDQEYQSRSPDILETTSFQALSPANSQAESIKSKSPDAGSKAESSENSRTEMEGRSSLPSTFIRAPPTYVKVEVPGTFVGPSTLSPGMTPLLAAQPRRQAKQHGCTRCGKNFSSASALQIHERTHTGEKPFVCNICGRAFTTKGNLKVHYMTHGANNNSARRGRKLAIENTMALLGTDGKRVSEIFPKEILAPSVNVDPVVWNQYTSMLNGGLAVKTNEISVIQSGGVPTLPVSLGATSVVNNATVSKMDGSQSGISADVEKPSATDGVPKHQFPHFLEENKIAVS
# Method: universal PBM
# Form: double-stranded DNA, one strand shown
# Matrix: in vitro
# Tested at: 600 nM
# Setting: 8-mer, flanks averaged, mean of replicates
# Direction: higher = stronger binding
Strand,E-score
ACGGCACG,-0.15
ATATGGGC,0.0954
CTTACATC,0.16
ACAGGGAC,-0.219
AGGTAGAG,-0.00215
AAGTTCAC,-0.0341
AGTCCGAC,-0.19
TAACAGAA,0.211
CCCACTAG,-0.329
ACCAAGAC,0.00207
AATCACTC,0.128
GAATGTGA,0.11
AGCAATTC,0.134
AATAATCC,0.338
ACGCGCGA,-0.192
GAATCGAA,0.18
CTAATGAA,0.169

# Set 3
# Target: RNA binding protein fox-1 homolog 2, RRM domain, GST-SBP tag (RBFOX2, Homo sapiens, UniProt O43251-10, residues 100-194)
# Method: RNA Bind-n-Seq
# Form: RNA
# Matrix: in vitro
# Tested at: 365 nM
# Setting: natural RNA segment, single round, ends assumed
# Baseline: no-protein control
# Direction: higher = stronger binding
# Constant ends, left off below: GGGAGUUCUACAGUCCGACGAUC … UGGAAUUCUCGGGUGCCAA
# Construct (chain): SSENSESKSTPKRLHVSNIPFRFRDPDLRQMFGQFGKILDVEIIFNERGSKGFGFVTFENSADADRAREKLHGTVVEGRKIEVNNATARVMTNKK
Strand,RBNS enrichment (R)
CACAUGGGCUCUUUUUCAGGUUUGAUGUAAGCAUAGGCUUGCAUAUUCCCAAGGUACAUACUUUGACUUAAAUGUGGGAUAACUCAGCACUAAUGGGCAGGUAAAGUCAC,0.654
UGUGCAGUUAUUUAAAUUUGUUUCUGUCAAAUUAAUCAUUUUUGUUGGACGAUUCAGUGGCGGGGGGGUUUUGCCUAAAUUAGUAUAUAAAAACAAAAAUGCUAAAUUAU,1.04
UGGUACCUGAUACCUGUUGGAGAUUAUGUGACUGCUGGCAUGUCUUAGAUAUCUUAGUUAUCUUUUGUUGACAGAUGAAUGGGAAUUAACAAUAGCUUUAUGUCUUUGUG,1.87
UUUGAACAUUUUGUCCCCUUUCCAGUGAAAAACUAAAAAGUAGUCAUCUGCCAUUACUGUUAUUUGCUGAUUUUAUUUUAUUUUGAUGGUAAUAUUCUAUCCUUAUGACA,0.343
CUGGCUGAGUAUGCCAUCCAGAGCAAGCGAUGCCCUCCCAGGUCAGUCUGGGGCACAAGCUGAGCCGCUGACUAGCAAUGCCUACAGCCUUUCCCAAUGCCCUUGCCUGC,1.01
UGGAGCAGUUAGAAUUUUGAGAGUAAUUACAACAGGAUCACAUUCUGAAAGAGUCACAUUUUGUCAAAAAUCUGAAAAGUAUGCAAUUUGUACAACUCUUACUUUCUAUG,0.457
UUUGAAGGCAACAAGAACCAAACAGGAUCUUGUCAUCACAUCUGAAUAAAGCUCCAUGAGCUGGCUGAAAGCUGGACACGCAUUUGCCUUUUUUUUUUUGCCACCUCUUU,0.855
UUCACCUCUAUCCAAAGAACUUGAUUUGCAUGGAUUUUGGAUAAAUCAUUUCAGUAUCAUCUCCAUCAUAUGCCUGACCCCUUGCUCCCUUCAAUGCUAGAAAAUCGAGU,2.92
UUUUCUAAACUAUCAAAAACUCUAGCAGUUUGAAAAGCCUAAUAUUUAUUUGUAUGUCAGUAUUUUUCAUUUGAUUCCCUAUUAGAAUUAAUUUUAAAACUUGAAGACUU,0.655
CUGUUCGGCCUUUGGGUGUGUGGUGGAUUCUCCCUGGGCCUCAGUGUGCCCAUCUGUAAAGGGGCAGCUGACAGUUUGUGGCAUCUUGCCAAGGGUCCCUGUGUGUGUGU,5.03
UGUUUCUGUGUUACCAACAACAGCAGACUUCUAGCAUGUACUUAUCAAUGUUGUUCGGUCAGCCCUUCCCUAAUUACACCUAUCCCCUACACAUACAUGCACAUAGACAC,2.62
GCCGCCUGGGGAGUGAGCCAGCCUGCAUCCCCGGCAGAGGAACUGGUGCCUGCCUUUGUCUGUGAGCUCAUUCCCACUGUUACCCUGAGCUGGCCCAAUGGAGCCUUACA,2.63

# Set 4
# Target: Histone acetyltransferase KAT6A, both winged helices, GST fusion (KAT6A, Homo sapiens, UniProt Q92794, residues 1-181)
# Method: protein binding microarray
# Form: double-stranded DNA, one strand shown
# Matrix: in vitro
# Tested at: not given
# Setting: 8-mer, flanks averaged, mean of 2 arrays, mostly near background
# Baseline: not given
# Direction: higher = stronger binding
# Residues (chain): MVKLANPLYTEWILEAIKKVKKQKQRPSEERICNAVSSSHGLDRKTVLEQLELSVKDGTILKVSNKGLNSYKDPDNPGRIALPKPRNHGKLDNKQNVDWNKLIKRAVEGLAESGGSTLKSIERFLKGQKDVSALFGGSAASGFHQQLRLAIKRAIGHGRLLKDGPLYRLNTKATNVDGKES
Strand,E-score
AATTAAGT,-0.083
GGAGGAAA,0.000945
GAGGACAA,-0.129
AAGAAACC,-0.00825
AGATGCGA,0.084
GAACCGCC,0.166
AGCTGGAC,-0.174
CGATTCGA,0.0273
AGTGGGCG,-0.0186
ACACGCAC,0.132
AATCATGA,-0.123
GATGTTCA,-0.0155
ATACCCAA,-0.0783
CAGCACTA,0.0196
AAACGTCT,-0.0995
AATCTCAG,-0.0542
AATACAAA,-0.114
AGAGCTCA,-0.159
CCTTGCCC,-0.0321
CATCGACA,-0.0893
AAGTCCTA,0.0179
CTCACATA,-0.0555
GACCTCTC,-0.051

# Set 5
# Target: Myc proto-oncogene protein, bHLH-zipper, MAX partner unstated (MYC, Homo sapiens, UniProt P01106, residues 368-449)
# Chain of UniProt P01106 (368-449, looked up): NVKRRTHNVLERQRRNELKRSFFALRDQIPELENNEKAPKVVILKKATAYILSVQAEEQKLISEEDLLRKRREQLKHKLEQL
# Method: protein-binding microarray
# Form: double-stranded DNA, one strand shown
# Matrix: in vitro
# Tested at: not given
# Setting: k-mer, scored over probes, only values ≥0.25
# Direction: higher = stronger binding
Strand,E-score
CAAACGTG,0.331
CACGTGGG,0.495
ACATGTGA,0.443
ATGCATGC,0.408
GCGTGGAC,0.413
GCGTGTAC,0.403
AAGGCATG,0.372
AACGTGAC,0.298
TCGTGTCA,0.34
ACCTCGCG,0.368
AGCCGCAT,0.265
AGCGTGCG,0.393
CCCATGGC,0.309
AAGGCCAC,0.265
ATGCTTTC,0.253
CATGTACA,0.307
CACCACGA,0.349
CCCCACAC,0.313
GCCGGACC,0.275
GAGGGGCA,0.284
CATGGGGA,0.366
CACATGCA,0.432
AATCCACG,0.289
CATGCTTC,0.404

# Excerpt of the above (set 3):
Strand,RBNS enrichment (R)
UUCACCUCUAUCCAAAGAACUUGAUUUGCAUGGAUUUUGGAUAAAUCAUUUCAGUAUCAUCUCCAUCAUAUGCCUGACCCCUUGCUCCCUUCAAUGCUAGAAAAUCGAGU,2.92
CUGUUCGGCCUUUGGGUGUGUGGUGGAUUCUCCCUGGGCCUCAGUGUGCCCAUCUGUAAAGGGGCAGCUGACAGUUUGUGGCAUCUUGCCAAGGGUCCCUGUGUGUGUGU,5.03
CACAUGGGCUCUUUUUCAGGUUUGAUGUAAGCAUAGGCUUGCAUAUUCCCAAGGUACAUACUUUGACUUAAAUGUGGGAUAACUCAGCACUAAUGGGCAGGUAAAGUCAC,0.654
UUUGAACAUUUUGUCCCCUUUCCAGUGAAAAACUAAAAAGUAGUCAUCUGCCAUUACUGUUAUUUGCUGAUUUUAUUUUAUUUUGAUGGUAAUAUUCUAUCCUUAUGACA,0.343
GCCGCCUGGGGAGUGAGCCAGCCUGCAUCCCCGGCAGAGGAACUGGUGCCUGCCUUUGUCUGUGAGCUCAUUCCCACUGUUACCCUGAGCUGGCCCAAUGGAGCCUUACA,2.63
UGGUACCUGAUACCUGUUGGAGAUUAUGUGACUGCUGGCAUGUCUUAGAUAUCUUAGUUAUCUUUUGUUGACAGAUGAAUGGGAAUUAACAAUAGCUUUAUGUCUUUGUG,1.87
UGUGCAGUUAUUUAAAUUUGUUUCUGUCAAAUUAAUCAUUUUUGUUGGACGAUUCAGUGGCGGGGGGGUUUUGCCUAAAUUAGUAUAUAAAAACAAAAAUGCUAAAUUAU,1.04
UUUUCUAAACUAUCAAAAACUCUAGCAGUUUGAAAAGCCUAAUAUUUAUUUGUAUGUCAGUAUUUUUCAUUUGAUUCCCUAUUAGAAUUAAUUUUAAAACUUGAAGACUU,0.655
CUGGCUGAGUAUGCCAUCCAGAGCAAGCGAUGCCCUCCCAGGUCAGUCUGGGGCACAAGCUGAGCCGCUGACUAGCAAUGCCUACAGCCUUUCCCAAUGCCCUUGCCUGC,1.01
UGUUUCUGUGUUACCAACAACAGCAGACUUCUAGCAUGUACUUAUCAAUGUUGUUCGGUCAGCCCUUCCCUAAUUACACCUAUCCCCUACACAUACAUGCACAUAGACAC,2.62
UGGAGCAGUUAGAAUUUUGAGAGUAAUUACAACAGGAUCACAUUCUGAAAGAGUCACAUUUUGUCAAAAAUCUGAAAAGUAUGCAAUUUGUACAACUCUUACUUUCUAUG,0.457
UUUGAAGGCAACAAGAACCAAACAGGAUCUUGUCAUCACAUCUGAAUAAAGCUCCAUGAGCUGGCUGAAAGCUGGACACGCAUUUGCCUUUUUUUUUUUGCCACCUCUUU,0.855
